Published values of several laboratories.
Parts stem from different laboratories: compare values within a part only.
Sequence of UniProt P68400 (whole entry, looked up): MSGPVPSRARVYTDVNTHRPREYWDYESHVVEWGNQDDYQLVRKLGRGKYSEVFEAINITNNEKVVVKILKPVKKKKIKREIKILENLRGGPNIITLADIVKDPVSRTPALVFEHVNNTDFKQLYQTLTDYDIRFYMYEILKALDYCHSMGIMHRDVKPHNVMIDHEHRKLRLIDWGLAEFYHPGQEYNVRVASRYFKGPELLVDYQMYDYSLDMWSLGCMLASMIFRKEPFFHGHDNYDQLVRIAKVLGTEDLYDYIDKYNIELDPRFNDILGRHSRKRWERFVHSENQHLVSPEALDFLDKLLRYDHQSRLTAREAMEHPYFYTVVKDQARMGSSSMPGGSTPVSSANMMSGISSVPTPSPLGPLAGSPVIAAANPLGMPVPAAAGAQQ
Sequence of UniProt P78368 (whole entry, looked up): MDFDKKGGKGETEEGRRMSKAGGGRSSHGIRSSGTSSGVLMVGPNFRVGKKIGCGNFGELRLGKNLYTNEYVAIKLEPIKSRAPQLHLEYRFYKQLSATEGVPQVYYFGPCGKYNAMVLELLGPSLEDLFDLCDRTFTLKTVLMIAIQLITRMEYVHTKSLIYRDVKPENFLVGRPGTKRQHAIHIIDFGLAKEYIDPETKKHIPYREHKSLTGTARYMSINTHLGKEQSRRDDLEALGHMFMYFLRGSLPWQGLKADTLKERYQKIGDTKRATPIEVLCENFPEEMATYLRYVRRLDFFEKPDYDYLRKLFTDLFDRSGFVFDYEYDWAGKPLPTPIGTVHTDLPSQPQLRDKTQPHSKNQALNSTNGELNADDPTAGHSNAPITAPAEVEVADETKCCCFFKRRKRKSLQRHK
Sequence of UniProt Q16659 (whole entry, looked up): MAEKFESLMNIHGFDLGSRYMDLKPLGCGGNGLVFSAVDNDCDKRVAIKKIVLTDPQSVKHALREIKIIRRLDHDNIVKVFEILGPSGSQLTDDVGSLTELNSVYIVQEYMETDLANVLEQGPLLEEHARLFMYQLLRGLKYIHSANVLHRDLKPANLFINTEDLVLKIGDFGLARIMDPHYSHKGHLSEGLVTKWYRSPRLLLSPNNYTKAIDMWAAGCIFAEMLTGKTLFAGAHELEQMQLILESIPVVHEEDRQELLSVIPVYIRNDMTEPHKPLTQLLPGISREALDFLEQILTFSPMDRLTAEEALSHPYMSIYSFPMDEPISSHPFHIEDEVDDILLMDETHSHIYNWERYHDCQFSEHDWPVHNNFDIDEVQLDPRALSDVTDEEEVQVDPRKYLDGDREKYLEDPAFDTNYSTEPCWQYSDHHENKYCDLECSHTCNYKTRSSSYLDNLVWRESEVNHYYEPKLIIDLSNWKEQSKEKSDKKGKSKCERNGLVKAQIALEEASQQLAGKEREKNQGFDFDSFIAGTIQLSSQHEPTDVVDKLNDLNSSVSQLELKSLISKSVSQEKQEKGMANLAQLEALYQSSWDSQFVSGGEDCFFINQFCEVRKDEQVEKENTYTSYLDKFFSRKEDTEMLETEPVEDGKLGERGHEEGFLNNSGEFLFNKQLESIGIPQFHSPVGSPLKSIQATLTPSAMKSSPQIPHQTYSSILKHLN
Sequence of UniProt Q13523 (whole entry, looked up): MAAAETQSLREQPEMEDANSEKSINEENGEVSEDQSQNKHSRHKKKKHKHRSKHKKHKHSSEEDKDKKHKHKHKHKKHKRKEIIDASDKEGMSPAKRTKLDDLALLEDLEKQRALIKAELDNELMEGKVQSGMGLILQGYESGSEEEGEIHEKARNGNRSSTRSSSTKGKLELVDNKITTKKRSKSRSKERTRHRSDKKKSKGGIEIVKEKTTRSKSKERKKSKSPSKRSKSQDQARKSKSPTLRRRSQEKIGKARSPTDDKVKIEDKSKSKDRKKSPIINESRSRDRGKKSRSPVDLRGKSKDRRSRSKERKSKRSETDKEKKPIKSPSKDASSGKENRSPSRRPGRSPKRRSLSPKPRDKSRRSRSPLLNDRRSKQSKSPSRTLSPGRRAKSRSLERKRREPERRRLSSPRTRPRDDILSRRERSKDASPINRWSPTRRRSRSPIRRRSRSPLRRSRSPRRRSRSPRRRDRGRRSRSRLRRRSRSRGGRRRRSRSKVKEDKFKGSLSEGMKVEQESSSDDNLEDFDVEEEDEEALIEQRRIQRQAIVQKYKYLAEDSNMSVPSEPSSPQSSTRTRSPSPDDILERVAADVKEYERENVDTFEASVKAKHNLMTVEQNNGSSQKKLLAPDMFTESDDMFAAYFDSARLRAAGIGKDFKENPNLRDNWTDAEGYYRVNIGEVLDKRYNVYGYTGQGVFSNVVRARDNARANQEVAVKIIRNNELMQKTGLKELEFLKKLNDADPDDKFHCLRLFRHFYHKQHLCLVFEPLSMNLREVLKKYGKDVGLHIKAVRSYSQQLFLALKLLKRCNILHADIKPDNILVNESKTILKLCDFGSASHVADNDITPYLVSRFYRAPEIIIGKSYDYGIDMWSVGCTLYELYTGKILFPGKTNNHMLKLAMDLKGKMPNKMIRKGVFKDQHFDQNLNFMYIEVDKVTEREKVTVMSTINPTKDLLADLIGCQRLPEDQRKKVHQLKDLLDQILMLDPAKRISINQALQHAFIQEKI
Sequence of UniProt P54753 (whole entry, looked up): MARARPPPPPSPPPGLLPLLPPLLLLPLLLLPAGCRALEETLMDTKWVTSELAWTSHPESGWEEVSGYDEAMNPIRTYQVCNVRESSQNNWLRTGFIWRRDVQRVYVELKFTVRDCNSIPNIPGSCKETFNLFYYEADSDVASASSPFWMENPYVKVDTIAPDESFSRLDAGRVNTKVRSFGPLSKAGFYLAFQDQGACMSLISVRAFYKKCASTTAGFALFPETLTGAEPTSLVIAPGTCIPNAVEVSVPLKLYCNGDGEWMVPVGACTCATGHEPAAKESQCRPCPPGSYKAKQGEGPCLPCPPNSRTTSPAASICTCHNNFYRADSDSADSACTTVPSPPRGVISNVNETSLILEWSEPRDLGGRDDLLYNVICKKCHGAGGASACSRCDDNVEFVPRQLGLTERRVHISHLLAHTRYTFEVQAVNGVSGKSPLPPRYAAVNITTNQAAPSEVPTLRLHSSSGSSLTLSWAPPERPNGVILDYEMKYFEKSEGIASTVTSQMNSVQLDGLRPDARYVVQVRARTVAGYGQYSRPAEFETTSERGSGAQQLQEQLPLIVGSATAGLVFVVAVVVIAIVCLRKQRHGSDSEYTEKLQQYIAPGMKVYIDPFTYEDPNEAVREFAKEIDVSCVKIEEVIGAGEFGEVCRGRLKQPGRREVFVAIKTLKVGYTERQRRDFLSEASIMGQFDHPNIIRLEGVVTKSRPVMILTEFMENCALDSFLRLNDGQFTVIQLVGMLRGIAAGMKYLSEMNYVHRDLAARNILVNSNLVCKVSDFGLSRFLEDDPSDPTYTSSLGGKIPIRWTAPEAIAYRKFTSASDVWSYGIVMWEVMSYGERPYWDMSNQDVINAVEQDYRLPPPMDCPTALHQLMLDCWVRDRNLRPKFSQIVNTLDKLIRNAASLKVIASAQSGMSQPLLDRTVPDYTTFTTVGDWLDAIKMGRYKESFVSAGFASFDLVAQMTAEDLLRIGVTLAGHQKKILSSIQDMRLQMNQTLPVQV

Series 1
Compound: N#Cc1ccc(Nc2ccc3[nH]c(=O)[nH]c3c2)c(Cl)c1
Tested at: 1 µM
target | read-out | technique | remaining binding [%]
SRPK3 (Homo sapiens, UniProt Q9UPE1) | cell-free assay | competition with immobilised ligand | 100
PIK3CA (Homo sapiens, UniProt P42336, E545A) | cell-free assay | competition with immobilised ligand | 100
Tyrosine-protein kinase ABL1, phosphorylated (ABL1, Homo sapiens, UniProt P00519, F317I) | binding | – | 81
Tyrosine-protein kinase JAK1, JH2 (JAK1, Homo sapiens, UniProt P23458) | cell-free assay | competition with immobilised ligand | 97
PRPF4B (Homo sapiens, UniProt Q13523) | cell-free assay | competition with immobilised ligand | 99
MAPK6 (Homo sapiens, UniProt Q16659) | cell-free assay | competition with immobilised ligand | 100
CSF1R (Homo sapiens, UniProt P07333) | cell-free assay | competition with immobilised ligand | 97
CSNK1G2 (Homo sapiens, UniProt P78368) | cell-free assay | competition with immobilised ligand | 100
CDK7 (Homo sapiens, UniProt P50613) | cell-free assay | competition with immobilised ligand | 99
PRKACB (Homo sapiens, UniProt P22694) | cell-free assay | competition with immobilised ligand | 96
CDK9 (Homo sapiens, UniProt P50750) | cell-free assay | competition with immobilised ligand | 100
SGK1 (Homo sapiens, UniProt O00141) | cell-free assay | competition with immobilised ligand | 100
MAP3K7 (Homo sapiens, UniProt O43318) | cell-free assay | competition with immobilised ligand | 90
FLT3 (Homo sapiens, UniProt P36888, R834Q) | cell-free assay | competition with immobilised ligand | 90
PIK3CB (Homo sapiens, UniProt P42338) | cell-free assay | competition with immobilised ligand | 100
CSNK2A1 (Homo sapiens, UniProt P68400) | cell-free assay | competition with immobilised ligand | 80
EPHB3 (Homo sapiens, UniProt P54753) | cell-free assay | competition with immobilised ligand | 100

Series 2
Target: Calcium/calmodulin-dependent protein kinase type II subunit alpha (CAMK2A, Homo sapiens, UniProt Q9UQM7)
Sequence of UniProt Q9UQM7 (whole entry, looked up): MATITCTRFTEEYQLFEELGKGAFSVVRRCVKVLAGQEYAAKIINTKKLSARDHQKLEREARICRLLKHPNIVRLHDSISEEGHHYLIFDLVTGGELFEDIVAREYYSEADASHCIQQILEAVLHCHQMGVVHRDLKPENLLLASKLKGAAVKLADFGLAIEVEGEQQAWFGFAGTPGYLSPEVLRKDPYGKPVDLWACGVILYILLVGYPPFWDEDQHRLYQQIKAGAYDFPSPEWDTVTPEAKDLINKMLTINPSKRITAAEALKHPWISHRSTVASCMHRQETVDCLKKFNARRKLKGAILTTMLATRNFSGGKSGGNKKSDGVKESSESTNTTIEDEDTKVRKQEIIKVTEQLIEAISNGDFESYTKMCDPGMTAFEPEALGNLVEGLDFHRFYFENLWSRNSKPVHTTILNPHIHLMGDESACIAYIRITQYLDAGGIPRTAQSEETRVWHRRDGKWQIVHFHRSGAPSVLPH
Read-out: enzyme activity
Mode: inhibitor
Tested at: 10 µM
SMILES | inhibition
O=c1cc(-c2ccc(O)cc2)oc2cc(O)c(O)c(O)c12 | -22%
[N-]=[N+]=N[C@]1(CO)O[C@@H](n2ccc(N)nc2=O)[C@@H](F)[C@@H]1O | -14%
CC1(C)CC[C@]2(C(=O)O)CC[C@]3(C)C(=CC[C@@H]4[C@@]5(C)C[C@@H](O)[C@H](O)[C@@](C)(CO)[C@@H]5CC[C@]43C)[C@@H]2[C@@H]1O | -17%
C/C=C(\C)C(=O)O[C@H]1[C@H](OC(C)=O)[C@]2(CO)[C@H](O)C[C@]3(C)C(=CC[C@@H]4[C@@]5(C)CC[C@H](O[C@@H]6O[C@H](C(=O)O)[C@@H](O[C@@H]7O[C@H](CO)[C@@H](O)[C@H](O)[C@H]7O)[C@H](O)[C@H]6O[C@@H]6O[C@H](CO)[C@@H](O)[C@H](O)[C@H]6O)[C@](C)(CO)[C@@H]5CC[C@]43C)[C@@H]2CC1(C)C | 0%

Series 3
Cell line: HaCaT
Tested at: 100 µM
Time: 36 h
SMILES | viability [%]
N[C@@H](C(=O)N[C@@H]1C(=O)N2C(C(=O)O)=C(Cl)CS[C@H]12)c1ccccc1 | 98.3
CCN1CCCC1CNC(=O)c1cc(S(=O)(=O)CC)c(N)cc1OC (centres unmarked) | 95.7
CC(C)OC(=O)CCC/C=C\C[C@@H]1[C@@H](CC[C@@H](O)CCc2ccccc2)[C@H](O)C[C@@H]1O | 6.61
CCCCC1C(=O)N(c2ccccc2)N(c2ccccc2)C1=O | 97.4
CCN(CCCCOC(=O)c1ccc(OC)c(OC)c1)C(C)Cc1ccc(OC)cc1 (centres unmarked) | 28.2
CC(/C=C/C=C(\C)C(=O)O[C@@H]1O[C@H](CO[C@@H]2O[C@H](CO)[C@@H](O)[C@H](O)[C@H]2O)[C@@H](O)[C@H](O)[C@H]1O)=C\C=C\C=C(C)\C=C\C=C(/C)C(=O)O[C@@H]1O[C@H](CO[C@@H]2O[C@H](CO)[C@@H](O)[C@H](O)[C@H]2O)[C@@H](O)[C@H](O)[C@H]1O | 122
CC(=O)N[C@@H](CCC(N)=O)C(=O)O | 90.2
CO/N=C(\C(=O)N[C@@H]1C(=O)N2C(C(=O)OC(C)OC(C)=O)=C(COC(N)=O)CS[C@H]12)c1ccco1 (some centres unmarked) | 111
C[C@@](Cc1ccc(O)c(O)c1)(NN)C(=O)O | 112
CCCC(=O)OCOC(=O)C1=C(C)NC(C)=C(C(=O)OC)C1c1cccc(Cl)c1Cl (centres unmarked) | 39.8
O=C(COc1ccc(Cl)cc1)N1CCN(Cc2ccc3c(c2)OCO3)CC1 | 53

Series 4
Target: Activated CDC42 kinase 1 (TNK2, Homo sapiens, UniProt Q07912)
Sequence of UniProt Q07912 (whole entry, looked up): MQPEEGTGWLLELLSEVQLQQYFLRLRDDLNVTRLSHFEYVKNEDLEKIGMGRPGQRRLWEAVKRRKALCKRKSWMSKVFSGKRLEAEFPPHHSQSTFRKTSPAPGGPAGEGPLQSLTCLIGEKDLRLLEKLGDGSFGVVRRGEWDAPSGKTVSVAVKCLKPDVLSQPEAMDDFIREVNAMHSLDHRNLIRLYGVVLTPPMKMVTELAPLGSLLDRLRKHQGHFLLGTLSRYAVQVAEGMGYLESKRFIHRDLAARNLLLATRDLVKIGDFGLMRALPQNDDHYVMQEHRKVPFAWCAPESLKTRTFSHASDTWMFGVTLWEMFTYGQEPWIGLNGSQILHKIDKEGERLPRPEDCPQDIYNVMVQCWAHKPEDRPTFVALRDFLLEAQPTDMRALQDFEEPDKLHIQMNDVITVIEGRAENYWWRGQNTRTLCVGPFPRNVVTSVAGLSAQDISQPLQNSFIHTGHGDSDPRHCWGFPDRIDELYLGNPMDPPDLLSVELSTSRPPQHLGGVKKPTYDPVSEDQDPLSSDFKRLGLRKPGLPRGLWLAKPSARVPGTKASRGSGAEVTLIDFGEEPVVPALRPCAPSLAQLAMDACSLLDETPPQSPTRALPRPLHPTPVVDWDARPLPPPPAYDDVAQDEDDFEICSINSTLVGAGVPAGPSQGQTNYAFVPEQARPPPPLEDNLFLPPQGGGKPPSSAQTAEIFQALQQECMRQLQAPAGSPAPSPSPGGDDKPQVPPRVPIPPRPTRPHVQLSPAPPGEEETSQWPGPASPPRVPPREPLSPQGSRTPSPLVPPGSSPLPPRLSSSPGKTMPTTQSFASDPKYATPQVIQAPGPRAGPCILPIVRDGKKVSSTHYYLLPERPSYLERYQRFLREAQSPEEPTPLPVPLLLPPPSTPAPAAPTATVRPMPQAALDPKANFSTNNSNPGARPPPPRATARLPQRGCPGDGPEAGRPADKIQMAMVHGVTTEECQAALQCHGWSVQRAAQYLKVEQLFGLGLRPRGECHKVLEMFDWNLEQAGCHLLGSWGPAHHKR
Read-out: enzyme activity
Mode: inhibitor
Tested at: 0.5 µM
Reference: control
SMILES | remaining activity
CCCC(=O)Oc1ccc2[nH]c(C(=O)c3cc4ccccc4[nH]3)cc2c1 | 77.7%
CCc1[nH]c(-c2ccc(OC)cc2)nc1-c1ccncc1 | 100%
COc1cc(Nc2c(C#N)cnc3cc(OCCCN4CCN(C)CC4)c(OC)cc23)c(Cl)cc1Cl | 3.54%
COc1ccc(S(=O)(=O)N(CCO)c2ccccc2CN(C)CC=Cc2ccc(Cl)cc2)cc1 | 94.1%
NC(=O)c1ccc(N(C(N)=O)c2c(F)cccc2F)nc1-c1ccc(F)cc1F | 96.1%
Cc1cc(Nc2nc(-c3ccccc3)nc3ccccc23)n[nH]1 | 10.8%
O=C1Cc2c([nH]c3ccc([N+](=O)[O-])cc23)-c2ccccc2N1 | 74.9%
Nc1nccc(-c2c(-c3ccc(F)cc3)ncn2C2CCNCC2)n1 | 98%
N#CC(=C(N)Sc1ccc(N)cc1)c1ccccc1C(F)(F)F | 100%
Cc1ccc(NC2=CC(=O)c3sc(C)nc3C2=O)cc1 | 94.3%
CC(C)(C)n1nc(Cc2cccc3ccccc23)c2c(N)ncnc21 | 2.36%
Oc1ccc(Nc2nc(-c3ccc(Cl)cc3)cs2)cc1 | 103%

For quick reference, copied from above (series 1):
target | read-out | technique | remaining binding [%]
CDK9 (Homo sapiens, UniProt P50750) | cell-free assay | competition with immobilised ligand | 100
Tyrosine-protein kinase JAK1, JH2 (JAK1, Homo sapiens, UniProt P23458) | cell-free assay | competition with immobilised ligand | 97
CDK7 (Homo sapiens, UniProt P50613) | cell-free assay | competition with immobilised ligand | 99
PRPF4B (Homo sapiens, UniProt Q13523) | cell-free assay | competition with immobilised ligand | 99
FLT3 (Homo sapiens, UniProt P36888, R834Q) | cell-free assay | competition with immobilised ligand | 90
